# Measured values gathered from unrelated publications.
# Numbers after ± are the reported error.
Structure (SMILES),tested on,test,system,setting,scale,endpoint,result
CC[C@H](C)[C@H](N)C(=O)N[C@@H](CC(C)C)C(=O)N1CCC[C@H]1C(=O)N[C@@H](CO)C(=O)N[C@@H](CC(=O)O)C(=O)N[C@H](C(=O)N[C@@H](CCSC)C(=O)N[C@@H](CC(=O)O)C(=O)N[C@@H](Cc1ccccc1)C(=O)N[C@H](C(=O)N[C@@H](CC(C)C)C(=O)N[C@@H](CCCCN)C(=O)N[C@@H](CC(N)=O)C(=O)N[C@H](C(=O)N1CCC[C@H]1C(N)=O)[C@@H](C)O)C(C)C)[C@@H](C)CC,,HPLC,50% human serum,"1 mg/mL, 24 h, 37 °C",,degradation,~25%
CN(O)C(=O)CCC(=O)NCCCN(CCCCN(CCCNC(=O)CCC(=O)N(C)O)C(=O)CCC(=O)N(C)O)C(=O)CCC(=O)N(C)O.[89Zr],,radio-TLC,aqueous buffer,"7 d, pH 7, 37 °C, 89Zr-labelled complex, together with: DTPA 1000-fold excess",,intact complex,91.9 ± 0.1%
O=C1C2CC3CC1CC(C(=O)N1CCN(c4ccc([N+](=O)[O-])c5ncccc45)CC1)(C3)C2,Salmonella typhimurium,Ames test,TA98,"0.78 µg/well, with S9",,mean revertant colonies,7 colonies/well
COc1cccc(OC)c1-c1cc(C(=O)NC2(C(=O)O)C3CC4CC(C3)CC2C4)nn1-c1ccc(C(=O)N(C)CCCN(C)C(=O)[C@H](CCCCNC(=O)[C@H](CC(C)C)NC(=O)C2OC2C(=O)O)NC(=O)CN2CCN(CC(=O)[O-])CCN(CC(=O)[O-])CCN(CC(=O)[O-])CC2)cc1C(C)C.[177Lu+3] (mixture of isomers),,,"mouse, HT-29 xenograft","168 h post injection, biodistribution",relative to: tumour over liver uptake,tumour-to-liver ratio,1.22
Cc1ncsc1-c1ccc(C(C)NC(=O)C2CC(O)CN2C(=O)C(NC(=O)CCCCCCCCCCN2CCCC(Nc3ncc(Cl)c(Nc4ccccc4S(=O)(=O)C(C)C)n3)C2)C(C)(C)C)cc1 (stereo not shown),22Rv1,"RNA-seq, refers to: PCLO mRNA",,concentration not given,relative to: DMSO,log2 fold change,-1.57
CC1Cc2ccccc2N1C(=O)CN1CCN(Cc2ccccc2)CC1 (stereo not shown),,,female NMRI mice,"intraperitoneal, 10 mg/kg free base, 15 min",relative to: brain over blood,tissue/plasma ratio,10.3
Cc1nc(N)nc2c1C(=O)N[C@@H](c1ccc(F)cc1-c1cccc(O[11CH3])n1)C2,,ex vivo biodistribution,"mice, U87 subcutaneous xenograft, spleen","60 min post-injection, baseline, vehicle pre-treatment",,SUV,5.7 ± 0.6
C=CC(=O)Nc1cc(Nc2nccc(-c3cn(C)c4ccccc34)n2)c(OC)cc1N(C)CCNC,,,human plasma,"72 h, storage stability, medium QC sample",,recovery,46.7%
CCCCN1C(=O)c2cccc3c(NCCCCCCCCCCN4CCOCC4)ccc(c23)C1=O,,,methanol,,,absorption maximum,443 nm
O=C(Nc1cnccc1-c1ccc([18F])cc1)c1ccnc(NC(=O)C2CC2)c1,,ex vivo gamma counting,"FVB/NJ mice, both sexes, stomach","intravenous, 120 min, mean, P-gp inhibitor pretreatment, together with: tariquidar 15 mg/kg iv",,SUV,1.23
CC(C)=CCC1=C([O-])C(=O)c2ccccc2C1=O.CC(C)=CCC1=C([O-])C(=O)c2ccccc2C1=O.Cc1cc2cccnc2c2ncccc12.O.[Cu+2],,cyclic voltammetry,dichloromethane,"0.1 mM, together with: 0.1 M Bu4NPF6",relative to: Ag/AgCl in saturated KOH,cathodic peak potential,-1.33 V
Cc1noc(C)c1Cn1cc(N2C(=O)CN(Cc3cccc(OS(=O)(=O)O)c3)C2=O)cn1,,,"Sprague-Dawley rat, male","oral, 100 mg/kg of parent drug, 2 h",,plasma concentration,4910 ng/mL
COC1CN([C@H]2CC[C@H]([C@@]3(C)Oc4c(Cl)cc(C(=O)NCc5c(SC)cc(C)[nH]c5=O)c(C)c4O3)CC2)C1,,"RNA-seq, refers to: LGR4","human, whole blood","dose not given, 24 h",relative to: pretreatment baseline,log2 fold change,1.36
Cc1ccc(CN2C(=O)/C(=N\c3ccc(Cl)cc3Br)c3ccccc32)cc1,,,"mouse, blood",200 mg/kg,,MPV,5.1 ± 0.08 fL
COc1ccc2c(c1)CCn1c[n+]3c(c1-2)-c1ccc(OC)cc1CC3,,,"female NSG mice, blood","6 mg/kg, day 7, 5 days per week",,MCHC,32.9 ± 0.88 g/dL
C/C(N)=N/C(=N\S(=O)(=O)c1ccc(C(F)(F)F)cc1)N1C[C@H](c2ccccc2)C(c2ccc(Cl)cc2)=N1,,,"male C57BL/6 mouse, liver","intravenous, 10 mg/kg",,Tmax,15 min
Cc1c(Cc2cc(Cl)cc(OC(C)C(=O)O)c2)c2ccc(C(=O)NC(C)c3ccc(C(C)(C)C)cc3)cc2n1C(C)C (stereo not shown),,metabolic stability,"mouse, liver microsomes",,,half-life,45.7 min
CC(C)(O)c1ncc([S@](N)(=O)=NC(=O)Nc2c3c(cc4c2CCC4)CCC3)s1,,"refers to: general, administration-site conditions",healthy human,"oral, dose not given, 14 days, all active multiple doses pooled",,subjects with TEAEs,35%
COc1cc(/C=C2\CNC/C(=C\c3cc(Cl)c(O)c(OC)c3)C2=O)cc(Cl)c1O,,MTT,"BV-2, mouse","3.75 to 60 µM, 24 and 48 h",,cytotoxicity,not toxic
O=Cc1ccc2cccc(O)c2n1,,"chemical stability, HPLC-MS",borate buffered saline,"pH 10.2, no N-acetyl-lysine",,degradation rate constant,0 h⁻¹
CC(C)(C)[C@H](NC(=O)C(F)F)C(=O)N1C[C@H]2[C@@H]([C@H]1C(=O)N[C@H](C#N)C[C@@H]1CCCNC1=O)C2(C)C,,,human hepatocytes,scaled to liver,,intrinsic clearance,< 8.9 mL/min/kg
C=C(NC(=O)c1csc(-c2nc3c(cc2O)-c2nc(cs2)C(=O)NC(C(C)O)C(=O)NC(=C(C)OC)c2nc(cs2)C(=O)NC2c4nc(cs4)C(=O)NC(COC(=O)c4c5c6c(cccc6n4O)COC(=O)C(OC4CC(C)(O)C(N(C)C)C(C)O4)C2OC5)c2nc-3cs2)n1)C(N)=O (stereo not shown),,,"ICR mice, Streptococcus pneumoniae ATCC 49169 infected, immunocompromised, blood","intravenous, 8 mg/kg/day twice daily",,MRT(0-t),4.76 h
C[C@@H]1O[C@@H](O[C@@H]2[C@@H](O)[C@H](O)[C@@H](CO)O[C@H]2c2c(O)cc(O)c3c(=O)cc(-c4ccc(O)cc4)oc23)[C@H](O)[C@H](O)[C@H]1O,,,"Sprague-Dawley rat, bile","intravenous, 20 mg/kg, 8 h",relative to: dose,cumulative biliary excretion,28.2 ± 1.52%
N=C(N)NCCC[C@@H]1NC(=O)[C@H](CO)NC(=O)[C@@H](NC(=O)[C@H](CO)NC(=O)[C@H](CO)NC(=O)[C@H](Cc2c[nH]c3ccccc23)NC(=O)CNC(=O)[C@H](CO)NC(=O)[C@@H](N)Cc2c[nH]c3ccccc23)CSSC[C@@H](C(=O)NCC(=O)O)NC(=O)[C@H](CO)NC1=O,,,"patients, plasma","intravenous, 5 mg/kg, thrice weekly, median",,clearance,1400 L/h
CC(C)C[C@H](NC(=O)[C@H](CCCN)NC(=O)CNC(=O)[C@@H](NC(=O)[C@H](C)NC(=O)[C@@H]1CSCSC[C@H](NC(=O)CC[C@H](N)C(=O)O)C(=O)N[C@@H](CC(N)=O)C(=O)N[C@@H]([C@@H](C)O)C(=O)N[C@@H](C)C(=O)N[C@@H]([C@@H](C)O)C(=O)N1)[C@@H](C)O)C(=O)N[C@@H](C)C(=O)N[C@@H](CCC(=O)O)C(=O)N[C@@](C)(Cc1ccccc1)C(=O)N[C@@H](CC(C)C)C(=O)N[C@H](C(=O)N[C@@H](CCCNC(=N)N)C(=O)N[C@@H](CO)C(=O)N[C@@H](CO)C(=O)N[C@@H](CC(N)=O)C(=O)N(C)[C@@H](CC(N)=O)C(=O)N[C@@H](Cc1ccccc1)C(=O)NCC(=O)N1CCC[C@H]1C(=O)N[C@@H](CCCCNC(=O)CC[C@H](NC(=O)CC[C@H](NC(=O)CCCCCCCCCCCCCCCCCCC(=O)O)C(=O)O)C(=O)O)C(=O)N[C@@H](CC(C)C)C(=O)N1CCC[C@H]1C(=O)N1CCC[C@H]1C(=O)N[C@H](C(=O)N[C@@H](CCC(=O)O)C(=O)N[C@H](C(=O)NCC(=O)N[C@@H](CO)C(=O)N[C@@H](CC(N)=O)C(=O)N[C@H](C(=O)N[C@@H](Cc1ccc(O)cc1)C(N)=O)[C@@H](C)O)C(C)C)[C@@H](C)O)C(C)C,,,"healthy humans, plasma","subcutaneous, dose not given",,AUC extrapolated,4.5%
O=C(O)CCCOc1ccc([18F])cc1-c1cc(-c2ccccc2C(F)(F)F)n(-c2ccccc2)n1,,OLINDA/EXM from mouse data,"human adults, lungs",,,absorbed dose,9.23 µGy/MBq
CCCCN1C(=O)c2cccc3c(NCCCCCCCCN4CCOCC4)ccc(c23)C1=O,,,ethylene glycol,,,absorption maximum,448 nm
CN1CCC[C@]1(C)/C=C/S(=O)(=O)NC(=O)Nc1c2c(cc3c1C(O)CC3)CCC2 (stereo partly shown),,,"human, plasma","oral, 12.5 mg twice daily of parent drug, day 14, metabolite of dosed drug",,AUC(0-tau),31600 ng·h/mL
CCCCN1C(=O)c2cccc3c(NCCCCCCN4CCOCC4)ccc(c23)C1=O,,,chloroform,,,absorption maximum,429 nm
[123I]c1ccc2nc(-c3ccc(-n4ccnn4)nc3)cn2c1,,,"male Wistar rat, bone","intravenous, 4 MBq, 3 h",,tracer uptake,0.042 %ID/g
CN1CCC[C@]1(C)/C=C/S(=O)(=O)NC(=O)Nc1c2c(cc3c1CCC3)CC=C2,,,"human, plasma","oral, 12.5 mg twice daily of parent drug, day 1, metabolite of dosed drug",,AUC(0-tau),35800 ng·h/mL
O=C(O)/C=C\c1cc2ccoc2cc1O[C@@H]1O[C@H](CO)[C@@H](O)[C@H](O)[C@H]1O,,post-procedure stability,rat plasma,"200 ng/mL, 1 h, room temperature",,accuracy,87%
Cc1nc(N)nc2c1C(=O)N[C@@H](c1ccc(F)cc1-c1cccc(OCC[18F])n1)C2,,ex vivo biodistribution,"C57BL/6 mice, bone","intravenous, 1 MBq, 30 min",,SUV,0.55 ± 0.04
CCCCN1C(=O)c2cccc3c(NCCN4CCOCC4)ccc(c23)C1=O,,,DMF,,,absorption maximum,438 nm
O=C(NCCN1C(=O)CCC1=O)[O][Pt]12([O]C(=O)NCCN3C(=O)CCC3=O)([NH][C@@H]3CCCC[C@H]3[NH]1)[O]C(=O)C(=O)[O]2,,"AUC-based, refers to: platinum","BALB/c mice, CT26 tumour",iv,relative to: tumour over liver,tumour to organ ratio,0.1
CC[C@H](C)[C@H](NC(=O)CNC(=O)[C@H](C)NC(=O)[C@H](CC(=O)O)NC(=O)[C@H](CO)NC(=O)[C@H](C)NC(=O)[C@H](CC(C)C)NC(=O)[C@H](CCCCN)NC(=O)[C@H](CCCCN)NC(=O)[C@H](CCSC)NC(=O)[C@H](CC(N)=O)NC(=O)[C@H](Cc1ccccc1)NC(=O)[C@H](CC(=O)O)NC(=O)[C@@H](N)CCSC)C(=O)N[C@@H](Cc1c[nH]c2ccccc12)C(=O)N[C@@H](Cc1ccccc1)C(=O)N[C@H](C(=O)N[C@@H](CCCNC(=N)N)C(=O)N[C@@H](C)C(=O)N[C@H](C(=O)N[C@@H](CCC(N)=O)C(=O)N[C@@H](Cc1ccccc1)C(=O)N[C@H](C(=O)N[C@@H](CCC(=O)O)C(=O)N[C@@H](CCC(=O)O)C(=O)N[C@@H](CCCCN)C(=O)N[C@@H](Cc1ccccc1)C(=O)NCC(=O)N[C@@H](CCC(N)=O)C(=O)N[C@@H](C)C(N)=O)[C@@H](C)O)C(C)C)[C@@H](C)O,,circular dichroism,aqueous TFE,"50 µM, pH 7.4, 20 °C",,TFE midpoint,2.35 ± 0.1 M
O=C(Nc1cnccc1-c1ccc([18F])nc1)c1ccnc(NC(=O)C2CC2)c1,,,"FVB/NJ mouse, both sexes, brain","intravenous, 5 min",,SUV,0.185
CCCCN1C(=O)c2cccc3c(NCCCN4CCOCC4)ccc(c23)C1=O,,,DMF,,,absorption maximum,441 nm
COC1C=COC2(C)Oc3c(C)c(O)c4c(c3C2=O)C2=NC3(CCN(CC(C)C)CC3)NC2=C(NC(=O)C(C)=CC=CC(C)C(O)C(C)C(O)C(C)C(OC(=O)Nc2cnccn2)C1C)C4=O (stereo not shown),,,"CD-1 mouse female, plasma","intravenous, 5 mg/kg",,clearance,2.2 mL/min/kg
Cc1nc2cc(C(=O)N[C@@H](C)c3ccc(C(C)(C)C)cc3)ccc2n1Cc1cc(Cl)cc(O[C@H](C)C(=O)O)c1,,metabolic stability,"mouse, liver microsomes",,,half-life,47.7 min

# For quick reference, copied from above:
Structure (SMILES),tested on,test,system,setting,scale,endpoint,result
O=Cc1ccc2cccc(O)c2n1,,"chemical stability, HPLC-MS",borate buffered saline,"pH 10.2, no N-acetyl-lysine",,degradation rate constant,0 h⁻¹
CC(C)(C)[C@H](NC(=O)C(F)F)C(=O)N1C[C@H]2[C@@H]([C@H]1C(=O)N[C@H](C#N)C[C@@H]1CCCNC1=O)C2(C)C,,,human hepatocytes,scaled to liver,,intrinsic clearance,< 8.9 mL/min/kg
C=C(NC(=O)c1csc(-c2nc3c(cc2O)-c2nc(cs2)C(=O)NC(C(C)O)C(=O)NC(=C(C)OC)c2nc(cs2)C(=O)NC2c4nc(cs4)C(=O)NC(COC(=O)c4c5c6c(cccc6n4O)COC(=O)C(OC4CC(C)(O)C(N(C)C)C(C)O4)C2OC5)c2nc-3cs2)n1)C(N)=O (stereo not shown),,,"ICR mice, Streptococcus pneumoniae ATCC 49169 infected, immunocompromised, blood","intravenous, 8 mg/kg/day twice daily",,MRT(0-t),4.76 h
C[C@@H]1O[C@@H](O[C@@H]2[C@@H](O)[C@H](O)[C@@H](CO)O[C@H]2c2c(O)cc(O)c3c(=O)cc(-c4ccc(O)cc4)oc23)[C@H](O)[C@H](O)[C@H]1O,,,"Sprague-Dawley rat, bile","intravenous, 20 mg/kg, 8 h",relative to: dose,cumulative biliary excretion,28.2 ± 1.52%
